Results gathered from unrelated publications.
Every numbered part comes from another study and shows a few of its results, in no order. Changes are numbered by the printed parent chain.

Series 1 — target: CCNF, cyclin fold, Cln2 fusion (human); technique: yeast growth competition, sequencing; matrix: yeast; notes: strong parent motif; relative to: not given; reading: higher = stronger binding; quantity: normalised enrichment score
Starting sequence: RB1 docking peptide (human); PKPLKKLRFDIEG
PKPLKELRFDIEG [K6E]: -0.145
PEPLKKLRFDIEG [K2E]: 1.9
PKPLKKLCFDIEG [R8C]: 1.57
PKPLKKLPFDIEG [R8P]: 0.795
PKPLKPLRFDIEG [K6P]: -0.508
PKPLKKKRFDIEG [L7K]: 2.06

Series 2 — technique: protein-binding microarray; molecule type: double-stranded DNA, one strand shown; matrix: in vitro; concentration: 250 nM; notes: 60-bp whole probe; added: salmon DNA 0.4 mg/ml; relative to: random background probes; reading: higher = stronger binding; quantity: log fluorescence; shared flanks, not repeated: GCCTAGCAC … GTCTTGATTCGCTTGACGCTGCTG
Target: Interferon regulatory factor 7, full length, phosphomimetic (IRF7, Homo sapiens, UniProt Q92985, residues 1-503, S101K/S471D/S472D/S475D/S476D/S477D/S483D/S484D/S487D)
Target sequence (chain): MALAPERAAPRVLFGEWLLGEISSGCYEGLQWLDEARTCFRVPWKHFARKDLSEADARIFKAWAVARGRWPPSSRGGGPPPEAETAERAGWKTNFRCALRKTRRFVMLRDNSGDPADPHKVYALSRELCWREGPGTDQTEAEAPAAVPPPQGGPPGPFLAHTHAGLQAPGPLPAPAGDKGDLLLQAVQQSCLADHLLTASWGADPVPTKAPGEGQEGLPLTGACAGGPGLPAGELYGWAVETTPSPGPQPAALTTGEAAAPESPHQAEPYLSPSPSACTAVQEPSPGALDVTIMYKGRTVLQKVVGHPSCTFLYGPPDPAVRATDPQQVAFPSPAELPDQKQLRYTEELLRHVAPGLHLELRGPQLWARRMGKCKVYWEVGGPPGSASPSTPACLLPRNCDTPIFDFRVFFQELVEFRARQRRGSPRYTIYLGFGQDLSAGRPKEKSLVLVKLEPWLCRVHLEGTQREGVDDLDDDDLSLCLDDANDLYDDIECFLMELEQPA
CAGCCTCTGAGCAGCTCGGCGTGCTAG: -0.603 z-score
GACGGTTTCGATTCCGGGACGTGCTAG: 12.6 z-score
TTTCCTATGTCATTTACATTGTGCTAG: 2.99 z-score
TTAGGTATCCTTATCCCTTAGTGCTAG: 0.373 z-score
TTAGGTTTCCTTTCTCTTTAGTGCTAG: 5.95 z-score
GACGGACTGCTATTGCTGACGTGCTAG: -0.801 z-score
GACGGTATCGGACGGGGGACGTGCTAG: 0.564 z-score
AGAGATTTCAGGAATTGAAAAGTGCTA: -0.269 z-score

Series 3 — technique: aptamer microarray, sandwich; molecule type: DNA with 2'F-ANA; matrix: in vitro; concentration: 200 nM; added: Cy3 exosite-II aptamer, 400 nM; reading: higher = stronger binding; quantity: mean fluorescence intensity; oligonucleotide: GGTTGGTGTGGTTGG
Target: Prothrombin, mature alpha-thrombin (F2, Homo sapiens, UniProt P00734)
Notes: whole 15-mer aptamer, many near background
2'F-ANA at 1 4 7 8 9 10 13 14: 46.6 a.u.
2'F-ANA at 1 2 3 5 7 9 11 12 13: 72.3 a.u.
2'F-ANA at 3 7 9 15: 1100 a.u.
2'F-ANA at 1 7 11 12 14 15: 92.9 a.u.
2'F-ANA at 4 5 7 10 12 14: 43.5 a.u.
2'F-ANA at 1 2 5 7 8 9 12 15: 115 a.u.
2'F-ANA at 2 4 8 9 10 13 15: 70.5 a.u.
2'F-ANA at 1 2 3 5 8 9 12 13 15: 99.5 a.u.
2'F-ANA at 1 3 4 5 7 10 12 13: 48.7 a.u.

Further values, each from its own experiment
PhoQ, residues 284 288 289 292 302 303 HSSMNL  fold induction (PhoP, residues 12 14 15 18 19 LYHSL (Escherichia coli, UniProt P23836); Sort-seq, refers to: YFP reporter; E. coli; PhoQ-PhoP variant library, added: 10 µM Mg2+; relative to: high Mg2+ state, higher = stronger signaling): 16.6

Some of these lines once more (further values, each from its own experiment):
PhoQ, residues 284 288 289 292 302 303 HSSMNL  fold induction (PhoP, residues 12 14 15 18 19 LYHSL (Escherichia coli, UniProt P23836); Sort-seq, refers to: YFP reporter; E. coli; PhoQ-PhoP variant library, added: 10 µM Mg2+; relative to: high Mg2+ state, higher = stronger signaling): 16.6
